Results from different studies.
A part holds a random share of what one study measured.

Set 1 — read-out: enzyme activity; action: inhibitor; tested at: 20 µM; notes: hit confirmation, with DTT
Target: Replicase polyprotein 1ab, main protease (rep, Severe acute respiratory syndrome coronavirus 2, UniProt P0DTD1)
| SMILES | inhibition |
| --- | --- |
| N=C(N)NN=C1C=CC(=NNC(N)=S)C=C1 | 1.8% |
| C=C1C(=O)[C@]23[C@H](O)[C@H]1CC[C@@H]2[C@@]12CO[C@]3(O)C[C@@H]1C(C)(C)CC[C@@H]2O | 1.8% |
| O=C1c2c(O)cccc2Cc2cccc(O)c21 | 23.7% |
| CCC[C@H](NC(=O)/C(C#N)=C/c1cccc(Br)n1)c1ccccc1 | -6.6% |
| COc1ncc(-c2ccc3nccc(-c4ccnnc4)c3c2)cc1NS(=O)(=O)c1ccc(F)cc1F | 37.6% |

Set 2 — technique: RNA Bind-n-Seq; molecule type: RNA; sample: in vitro; tested at: 200 nM; notes: whole 134-nt RNA, ends assumed; together with: 150 mM LiCl; relative to: input library; reading: higher = stronger binding; all molecules: 7-deaza-guanosine replaces G
Target: Fragile X messenger ribonucleoprotein 1, C-terminal low-complexity region (Fmr1, Mus musculus, UniProt P35922)
All sequences stand within: GGGAGUUCUACAGUCCGACGAUC … UGGAAUUCUCGGGUGUCAAGG
| Oligonucleotide | log2 enrichment |
| --- | --- |
| GUCCUGUGCUACACAUCGUAUGUACCGAAUCGGGGAAAAGGGGAAAAGGGAAAAGGGGAAAGUAUUAUGUUACGCCGUUCGGAUCUGCAC | 0.913 |
| CACAGACAACACGCACCCGCACAGACACAGAGGGAAGGGGUUGGGAUGGGGACAGGGUGCACAGCAGGGCGGGGUAGGACCCCAGCCCCU | 0.613 |
| UCCUGUGCUACACAUCGUAUGUACCGAAUCAAACCCAAACCCCCCCAAACCCCCCCAAAAAAGUAUUAUGUUACGCCGUUCGGAUCUGCA | 0.953 |
| CCUCAAGUCCUGUGCUACACAUCGUAUGUACCGAAUCGGGGCGGCGGGGCGGAAAGUAUUAUGUUACGCCGUUCGGAUCUGCACUUCCAG | -0.74 |
| UAACUUUAGAGGAGGAUCUGAUGGAUAUGGCAGUGGACGUGGAUUUGGGGAUGGCUAUAAUGGGUAUGGAGGAGGACCUGCAGGUGGCAA | 0.206 |
| CAAGUCCUGUGCUACACAUCGUAUGUACCGAAUCGGGUGGGAAAAAGGGAAAGGGAAAGUAUUAUGUUACGCCGUUCGGAUCUGCACUUC | -0.772 |
| UCAAGUCCUGUGCUACACAUCGUAUGUACCGAAUCGGGGCCGGGCCGGGGCCGGAAAGUAUUAUGUUACGCCGUUCGGAUCUGCACUUCC | 0.49 |
| UGGGAGGUGGAUUUUGUUUAUUUUUUUAGCUCAUUUCCAGGGGUGGGAAUUUUUUUUCAAUAUGUGUCAUGAAUAAAGUUGUUUUUGAAA | 0.188 |

Set 3 — read-out: enzyme activity; action: inhibitor; tested at: 20 µM
Target: Replicase polyprotein 1ab, polymerase (rep, Severe acute respiratory syndrome coronavirus 2, UniProt P0DTD1)
| Structure (SMILES) | inhibition |
| --- | --- |
| c1ccc(-c2ccc(CNc3nc(-c4ccccn4)nnc3-c3ccccc3)cc2)cc1 | 3.78% |
| O=C(/C=C/c1ccc(O)c(O)c1)c1ccc(O)cc1O | 48.9% |
| CN1CCCN=C1COC(=O)C(O)(c1ccccc1)C1CCCCC1 (stereo not drawn) | 8.91% |
| CNC(=O)c1ccc2c(c1)S(=O)(=O)c1ccccc1C2=O | 0.47% |
| O=C(OCCN1CCCCC1)c1c[nH]c2ccccc12 | 0.64% |
| Clc1ccc(C(Cn2ccnc2)OCc2csc3c(Cl)cccc23)c(Cl)c1 (stereo not drawn) | -2.49% |
| C[N+]1(C)[C@@H]2CC[C@H]1C[C@@H](OC(=O)C(CO)c1ccccc1)C2 (stereo partly drawn) | -11.3% |
| COc1cccc(OC)c1-c1cc(C(=O)NC2(C(=O)O)C3CC4CC(C3)CC2C4)nn1-c1ccnc2cc(Cl)ccc12 (stereo not drawn) | 8.82% |
| CN(C(=O)Cc1ccccc1)[C@H](CN1CCCC1)c1ccccc1 | 4.18% |
| C[C@@H]1NC(C)(C)CO[C@@]1(O)c1cccc(Cl)c1 | -1.56% |
| NCc1cc(O)no1 | -2.08% |
| COC1CCN(C(=O)c2cc(Cc3n[nH]c(=O)c4ccccc34)ccc2F)CC1 | 3.24% |
| CCCSc1nc(N[C@@H]2C[C@H]2c2ccc(F)c(F)c2)c2nnn([C@@H]3C[C@H](OCCO)[C@@H](O)[C@H]3O)c2n1 | 2.89% |
| Cc1n[nH]c(C)c1Cc1sc2c(c1C(=O)N1C[C@H](O)CO1)c(=O)n(C)c(=O)n2CC(C)C | -3.18% |
| O=C(/C=C\n1cnc(-c2cc(C(F)(F)F)cc(C(F)(F)F)c2)n1)NNc1cnccn1 | -0.52% |
| CC(=O)OCC(=O)[C@@]12OC3(CCCC3)O[C@@H]1C[C@H]1[C@@H]3CCC4=CC(=O)C=C[C@]4(C)[C@@]3(F)[C@@H](O)C[C@@]12C | -1.39% |
| CCC(=O)O[C@@H]1CC(=O)O[C@H](C)C/C=C/C=C/[C@H](O)[C@H](C)C[C@H](CC=O)[C@H](O[C@@H]2O[C@H](C)[C@@H](O[C@H]3C[C@@](C)(O)[C@@H](OC(=O)CC)[C@H](C)O3)[C@H](N(C)C)[C@H]2O)[C@H]1OC | 0.03% |
| O=C(CN1C2=NCCN2c2ccccc21)c1ccc(-c2ccccc2)cc1 | 1.46% |
| C=C1C(=O)[C@]23[C@H](O)[C@H]1CC[C@H]2[C@@]12CO[C@]3(O)[C@@H](O)[C@@H]1C(C)(C)CC[C@@H]2O | -7.46% |
| C=C[C@]1(C)C[C@@H](OC(=O)CS[C@@H]2C[C@H]3CC[C@@H](C2)N3C)[C@]2(C)[C@H](C)CC[C@]3(CCC(=O)[C@H]32)[C@@H](C)[C@@H]1O | -1.45% |
| C=CC(=O)N1CCN(C(=O)CNc2cc(I)c(Cl)cc2O)CC1 | 0.38% |
| CCCN(CC1CC1)c1nc(C)nc(Nc2c(Cl)cc(Cl)cc2Cl)c1Cl | -0.06% |
| Cc1cc(NCCO)nc(-c2ccc(Br)cc2)n1 | 0.41% |
| O=c1[nH]ccc2cc(OC3CCNCC3)ccc12 | -4.58% |
| CC(=O)N(CC(O)CO)c1c(I)c(C(=O)NCC(O)CO)c(I)c(C(=O)NCC(O)CO)c1I (mixture of isomers) | 8.46% |

Set 4 — cell line: HEK-293T; read-out: pseudovirus infection; technique: FDA-approved drug library screen; organism: VSV pseudotyped with SARS-CoV-2 spike; tested at: 10 µM; time: 16 h; relative to: vehicle-treated
| SMILES | GFP-positive cells |
| --- | --- |
| O=C(O)CCc1nc(-c2ccccc2)c(-c2ccccc2)o1 | 93% |
| C=CC[N+]1([C@H]2C[C@H]3[C@@H]4CC[C@H]5C[C@H](O)[C@@H](N6CCOCC6)C[C@]5(C)[C@H]4CC[C@]3(C)[C@H]2OC(C)=O)CCCC1 | 86.4% |
| NCC[C@H](O)C(=O)N[C@@H]1C[C@H](N)[C@@H](O[C@H]2O[C@H](CN)[C@@H](O)[C@H](O)[C@H]2O)[C@H](O)[C@H]1O[C@H]1O[C@H](CO)[C@@H](O)[C@H](N)[C@H]1O | 85.7% |
| CCCCCOC(=O)Nc1nc(=O)n([C@@H]2O[C@H](C)[C@@H](O)[C@H]2O)cc1F | 85.3% |
| CC(CCc1ccccc1)NCC(O)c1ccc(O)c(C(N)=O)c1 (stereo not drawn) | 94.9% |

Set 5 — technique: RNA Bind-n-Seq; molecule type: RNA; sample: in vitro; tested at: 365 nM; relative to: no-protein control; reading: higher = stronger binding
Target: RNA binding protein fox-1 homolog 2, RRM domain, GST-SBP tag (RBFOX2, Homo sapiens, UniProt O43251-10, residues 100-194)
Notes: natural RNA segment, single round, ends assumed
All sequences stand within: GGGAGUUCUACAGUCCGACGAUC … UGGAAUUCUCGGGUGCCAA
Residues (chain): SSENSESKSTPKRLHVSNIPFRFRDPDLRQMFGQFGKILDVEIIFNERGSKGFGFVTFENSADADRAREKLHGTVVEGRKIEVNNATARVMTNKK
| Oligonucleotide | RBNS enrichment (R) |
| --- | --- |
| UAGAUUUAUUUUGAGAAGUAAUUGUUCACUCUUUACUUUUGAGGCAGCCAUUAGGUUGAAAGUAUAUAUUUAUCAUAUAAAACUUGAUGCGUUUUGCACUACUCUUUCCA | 0.436 |
| UUCUUUUGAAUGGAUUUAUGCUGUCUUAGCAAUAUGACAAUAAUCCUCUGUAGCUUGAGCUACCCCUCCCCUGCUGUAACUUACGUGACCUGUGCUGUCACUGGGCAUAG | 0.328 |
| CUUAACAAUGAGCAUAGCUGGUCUCAGCCAGGGCACUCAGCACCUUCCCUUAAGGAGCAAGAAGCGCCUUCUCUGUCAGGUAAGGGGAUAAGCUCUGCUGGAUCCAAGGG | 0.28 |
| GCUGCAAGGGCCAGGCCAGAAAAGGGCGGGCCUGCAGCCUGCACCCCCCACCUUCCCCAACCCUUCCUCAAGAGCUGAAGGGAUCCCAGCCCCUAGGUGGGCAGAGGCAG | 0.451 |
| CUUUGUUCUCACACCCCACUGCCCAACAGAUUCCUUUGGAUGCUGUCUGGAACAGGAAAGAGGUAUAGGUGCCUAUCCACUGCCACUCUGCACGACUGAAGGGCCAGGCG | 1.18 |
| AAACACCCUUUAGUCUGUCAGUUGAAUUCAGAGCACUGAAAGGUGUUAAAUUGGGGUAUGUGGUUUGAUUGAUAAAAAGUUACCUCUCAGUAUUUUGUGUCACUGAGAAG | 1.99 |
| ACUUGUUUGAAAAUUUGGAAUAGUGCUGCUGUCAGCUUAUUUUUCUGGUACUUGUAUUUUCUAUGUUAAAUGAUCUUUAUAUGUGUUGGAUUAACAAAUAUUUUGAGUUU | 0.678 |
| AAUAAGUUAAUAUUAAGCAAGGUGCCGGUUGUACAAUCUCUGAUCAGUGUCUUUUCAGCACUUUGAGCAUUUACUUGGCUCAUUUAGUCUUCCUUUUGUAGCGCAUGGUU | 16.7 |
